Measured values gathered from unrelated publications.
Numbered parts are unrelated; each lists some results of a single study. Positions count from the first letter of the parent shown.

Block 1 — method: protein binding microarray; molecule type: double-stranded DNA, one strand shown; medium: in vitro; tested at: not given; baseline: not given; reading: higher = stronger binding; measurement: E-score
Target: Histone acetyltransferase KAT6A, both winged helices, GST fusion (KAT6A, Homo sapiens, UniProt Q92794, residues 1-181)
Setting: 8-mer, flanks averaged, mean of 2 arrays, mostly near background
Residues (chain): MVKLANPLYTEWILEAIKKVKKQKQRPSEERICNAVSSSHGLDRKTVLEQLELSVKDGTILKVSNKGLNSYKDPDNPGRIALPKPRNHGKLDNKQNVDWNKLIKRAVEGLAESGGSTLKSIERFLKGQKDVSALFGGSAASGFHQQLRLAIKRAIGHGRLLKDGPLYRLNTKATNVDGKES
Sequence = ATGGAGAC; value = -0.166
Sequence = CGGTATTA; value = 0.123
Sequence = CCCCACGC; value = 0.0419
Sequence = CTAGAGGA; value = -0.112
Sequence = AGGGGACT; value = -0.266
Sequence = GGCTGCAC; value = -0.00888
Sequence = GAGTAGCC; value = -0.0441
Sequence = TGTTAAAA; value = -0.0328
Sequence = ACACGCGT; value = 0.27
Sequence = CACAGGCG; value = 0.0593
Sequence = CGGTATAG; value = 0.186
Sequence = AGACGAAG; value = -0.105
Sequence = AATCACCG; value = 0.166
Sequence = GGCGAGCA; value = 0.0817
Sequence = CGCAGCTC; value = 0.103
Sequence = AGTACGTG; value = -0.155
Sequence = AAGTGCTC; value = -0.15
Sequence = GGACCACC; value = -0.0671
Sequence = ACTCCTTA; value = -0.118

Block 2 — target: FOSL1, bZIP domain (human); method: DHFR protein complementation; medium: yeast; baseline: wild-type JUN-FOS pair; reading: higher = stronger binding; measurement: binding fitness
Setting: single substitutions, most at no-binding floor
Parent: JUN, bZIP domain (human); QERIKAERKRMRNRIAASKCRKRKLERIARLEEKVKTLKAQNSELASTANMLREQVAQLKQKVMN; partner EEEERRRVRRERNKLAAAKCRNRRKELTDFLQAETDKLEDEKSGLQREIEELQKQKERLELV
Variant = M51W; value = -0.503 natural log
Variant = A40D; value = -0.493 natural log
Variant = M51R; value = -0.342 natural log
Variant = E44F; value = -0.782 natural log
Variant = L52E; value = -1.42 natural log
Variant = E33P; value = -1.49 natural log
Variant = A49R; value = -0.146 natural log
Variant = A29S; value = -0.519 natural log
Variant = I28C; value = -0.794 natural log
Variant = Q41G; value = -0.63 natural log
Variant = Q58H; value = -0.451 natural log
Variant = L52N; value = -1.02 natural log
Variant = T37L; value = -0.286 natural log
Variant = E54T; value = -0.558 natural log
Variant = E33L; value = -0.51 natural log
Variant = L38Q; value = -1.15 natural log
Variant = E54P; value = -1.3 natural log
Variant = M51G; value = -0.576 natural log
Variant = L38K; value = -1.42 natural log
Variant = L45F; value = -1.14 natural log
Variant = M51H; value = -0.403 natural log
Variant = Q41H; value = -0.679 natural log
Variant = I28F; value = -0.682 natural log

Block 3 — target: CCNB1, cyclin fold, Cln2 fusion (human); method: yeast growth competition, sequencing; medium: yeast; setting: weak parent motif; baseline: not given; reading: higher = stronger binding; measurement: normalised enrichment score
Parent: BRCA2 docking peptide (human); CKKRRALDFLSRL
Variant = R4A; value = 0.268
Variant = F9L; value = 0.47
Variant = K3A; value = 0.618
Variant = D8A; value = 0.746
Variant = R5A L7A; value = 1.16
Variant = K2A; value = 0.518
Variant = R5K; value = 0.19
Variant = C1A; value = 0.462
Variant = S11A; value = 0.726

Block 4 — method: DHFR PCA, deep sequencing; medium: yeast; with: (+)-ABA 0.032 µM; baseline: wild-type fitted maximum; reading: higher = stronger binding; measurement: relative binding score
Target: ABI1, truncated, D143A, DHFR fusion (Arabidopsis thaliana)
Setting: methotrexate growth selection, single substitutions
Parent: PYL1, truncated, DHFR fusion (Arabidopsis thaliana); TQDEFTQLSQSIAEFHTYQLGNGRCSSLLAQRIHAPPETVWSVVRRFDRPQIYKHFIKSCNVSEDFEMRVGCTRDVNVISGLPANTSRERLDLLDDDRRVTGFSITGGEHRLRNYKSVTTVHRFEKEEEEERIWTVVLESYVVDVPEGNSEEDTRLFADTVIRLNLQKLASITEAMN; partner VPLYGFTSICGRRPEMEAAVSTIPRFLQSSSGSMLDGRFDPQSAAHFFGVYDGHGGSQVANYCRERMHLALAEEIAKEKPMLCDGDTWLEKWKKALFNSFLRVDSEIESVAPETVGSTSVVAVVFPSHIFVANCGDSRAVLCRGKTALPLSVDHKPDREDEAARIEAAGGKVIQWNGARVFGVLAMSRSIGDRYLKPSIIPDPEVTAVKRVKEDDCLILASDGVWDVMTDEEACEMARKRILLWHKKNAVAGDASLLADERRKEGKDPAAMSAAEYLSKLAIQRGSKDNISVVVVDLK
Variant = V136F; value = 3.49%
Variant = L29V; value = 31.1%
Variant = R163M; value = 25.2%
Variant = S27R; value = 3.63%
Variant = L164F; value = 4.69%
Variant = R88Y; value = 9.89%
Variant = D96H; value = -0.97%
Variant = A158G; value = 3.15%
Variant = E152I; value = 3.27%
Variant = N22M; value = 13.5%
Variant = D97M; value = 9.21%
Variant = T106H; value = 2.15%
Variant = Y141F; value = -1.33%
Variant = Q51D; value = 24.3%
Variant = I57Y; value = -1.77%
Variant = Q167V; value = 1.85%
Variant = D153A; value = -3.44%
Variant = R98F; value = 3.77%
Variant = T173E; value = -2.24%

Block 5 — method: RNA Bind-n-Seq; molecule type: RNA; medium: in vitro; tested at: 1 µM; setting: whole 134-nt RNA, ends assumed; with: 150 mM KCl; baseline: input library; reading: higher = stronger binding; measurement: log2 enrichment
Target: Ras GTPase-activating protein-binding protein 1, RRM domain (G3BP1, Homo sapiens, UniProt Q13283)
Sequence of UniProt Q13283 (whole entry, looked up): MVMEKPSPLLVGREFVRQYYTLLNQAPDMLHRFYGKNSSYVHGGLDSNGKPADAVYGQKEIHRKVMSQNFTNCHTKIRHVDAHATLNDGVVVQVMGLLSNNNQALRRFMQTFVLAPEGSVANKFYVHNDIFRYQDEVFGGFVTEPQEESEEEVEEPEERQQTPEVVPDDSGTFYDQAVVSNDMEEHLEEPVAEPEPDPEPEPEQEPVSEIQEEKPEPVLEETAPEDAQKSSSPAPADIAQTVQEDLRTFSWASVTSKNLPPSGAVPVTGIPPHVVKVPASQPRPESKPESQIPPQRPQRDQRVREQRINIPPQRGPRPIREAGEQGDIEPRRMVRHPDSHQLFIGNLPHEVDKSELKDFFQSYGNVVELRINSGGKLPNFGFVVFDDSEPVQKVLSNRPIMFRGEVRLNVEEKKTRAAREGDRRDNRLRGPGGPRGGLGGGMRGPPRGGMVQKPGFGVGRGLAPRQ
All sequences stand within: GGGAGUUCUACAGUCCGACGAUC … UGGAAUUCUCGGGUGUCAAGG
Sequence = AAGUCCUGUGCUACACAUCGUAUGUACCGAAUCGGUGGUUUUUUUGGUUUUUUUGGAAAGUAUUAUGUUACGCCGUUCGGAUCUGCACUU; value = -0.337
Sequence = CCUCAAGUCCUGUGCUACACAUCGUAUGUACCGAAUCGGUUUGGUUUGGAGGAAAGUAUUAUGUUACGCCGUUCGGAUCUGCACUUCCAG; value = -0.212
Sequence = GUCCUGUGCUACACAUCGUAUGUACCGAAUCGGGGAAAGGGGUUUGGGGUUUUUGGGGAAAGUAUUAUGUUACGCCGUUCGGAUCUGCAC; value = 1.54
Sequence = CUCAAGUCCUGUGCUACACAUCGUAUGUACCGAAUCGGUUUGGAAAAAGGAGGAAAGUAUUAUGUUACGCCGUUCGGAUCUGCACUUCCA; value = -0.173
Sequence = ACCAUGCAGGUGGGCAUCUUUGGGAAGUGGGGCAAGGGGGGGAUAGGGAGGGGGGUAACACUAUGGGAACAGGUGGUCCCAGGUCGUUUC; value = 0.968
Sequence = CCUGUGCUACACAUCGUAUGUACCGAAUCGGGGUUUUUUGGGGUUUUUUGGUUUUUUGGGGAAAGUAUUAUGUUACGCCGUUCGGAUCUG; value = -0.223
Sequence = AGUCCUGUGCUACACAUCGUAUGUACCGAAUCAAAUUUUUUUAAACCCAAACCCAAAAAAGUAUUAUGUUACGCCGUUCGGAUCUGCACU; value = -0.949
Sequence = UCCUCAAGUCCUGUGCUACACAUCGUAUGUACCGAAUCGGGUGGUGGGUGGGAAAGUAUUAUGUUACGCCGUUCGGAUCUGCACUUCCAG; value = 0.162
Sequence = ACAAAGCAGGUGGGCAUCUUUGGGAAGUGGGGCAAGGGGGGGAUAGGGAGGGGGGUAACACUUUGGGAACAGGUGGUCCCAGGUCGUUUC; value = -0.411
Sequence = AGUCCUGUGCUACACAUCGUAUGUACCGAAUCGGGGAAAGGGGAAAAAGGGGUGGGGAAAGUAUUAUGUUACGCCGUUCGGAUCUGCACU; value = 1.29

A few entries again (block 4):
Variant = D153A; value = -3.44%
Variant = T173E; value = -2.24%
Variant = T106H; value = 2.15%
Variant = Q51D; value = 24.3%
Variant = L164F; value = 4.69%
Variant = N22M; value = 13.5%
